Results pooled from the literature.
Parts stem from different laboratories: compare values within a part only. Several values in a cell are separate wells, animals, samples, runs or records.
Chain of UniProt P36896 (whole entry, looked up): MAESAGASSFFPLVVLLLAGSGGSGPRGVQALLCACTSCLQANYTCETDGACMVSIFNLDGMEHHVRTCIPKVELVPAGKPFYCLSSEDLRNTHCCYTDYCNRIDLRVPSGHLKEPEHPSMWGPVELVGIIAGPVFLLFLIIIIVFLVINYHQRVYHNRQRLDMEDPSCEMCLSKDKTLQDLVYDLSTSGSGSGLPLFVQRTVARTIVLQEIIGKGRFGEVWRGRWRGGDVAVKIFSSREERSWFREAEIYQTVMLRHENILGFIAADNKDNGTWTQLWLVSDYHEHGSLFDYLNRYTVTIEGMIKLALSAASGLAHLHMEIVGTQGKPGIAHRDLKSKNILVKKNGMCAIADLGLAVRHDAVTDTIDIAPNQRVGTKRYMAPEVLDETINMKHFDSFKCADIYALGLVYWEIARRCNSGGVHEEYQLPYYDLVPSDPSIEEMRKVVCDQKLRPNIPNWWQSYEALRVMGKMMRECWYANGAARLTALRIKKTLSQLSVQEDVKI
Chain of UniProt P22607 (whole entry, looked up): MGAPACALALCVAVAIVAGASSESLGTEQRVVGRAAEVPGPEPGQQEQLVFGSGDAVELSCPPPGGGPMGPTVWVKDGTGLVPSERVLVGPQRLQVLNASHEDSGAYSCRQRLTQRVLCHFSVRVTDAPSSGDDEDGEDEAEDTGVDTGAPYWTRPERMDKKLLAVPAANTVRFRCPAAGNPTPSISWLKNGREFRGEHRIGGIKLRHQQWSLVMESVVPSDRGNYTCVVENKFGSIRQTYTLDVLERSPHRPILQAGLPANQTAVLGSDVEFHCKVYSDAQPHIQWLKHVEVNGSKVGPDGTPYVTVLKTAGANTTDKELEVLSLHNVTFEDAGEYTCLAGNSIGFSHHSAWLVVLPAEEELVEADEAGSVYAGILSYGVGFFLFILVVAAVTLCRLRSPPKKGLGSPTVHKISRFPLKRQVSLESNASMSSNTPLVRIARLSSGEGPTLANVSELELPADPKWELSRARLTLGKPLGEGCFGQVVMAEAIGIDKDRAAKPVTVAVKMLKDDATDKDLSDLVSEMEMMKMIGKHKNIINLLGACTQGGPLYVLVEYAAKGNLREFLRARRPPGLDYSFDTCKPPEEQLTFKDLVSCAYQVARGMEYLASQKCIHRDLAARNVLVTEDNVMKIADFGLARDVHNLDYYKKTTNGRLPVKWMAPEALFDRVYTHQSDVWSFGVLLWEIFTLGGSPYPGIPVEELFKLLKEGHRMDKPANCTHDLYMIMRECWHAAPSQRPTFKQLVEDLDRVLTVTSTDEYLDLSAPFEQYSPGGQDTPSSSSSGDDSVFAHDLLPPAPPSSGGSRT
Chain of UniProt P29320 (whole entry, looked up): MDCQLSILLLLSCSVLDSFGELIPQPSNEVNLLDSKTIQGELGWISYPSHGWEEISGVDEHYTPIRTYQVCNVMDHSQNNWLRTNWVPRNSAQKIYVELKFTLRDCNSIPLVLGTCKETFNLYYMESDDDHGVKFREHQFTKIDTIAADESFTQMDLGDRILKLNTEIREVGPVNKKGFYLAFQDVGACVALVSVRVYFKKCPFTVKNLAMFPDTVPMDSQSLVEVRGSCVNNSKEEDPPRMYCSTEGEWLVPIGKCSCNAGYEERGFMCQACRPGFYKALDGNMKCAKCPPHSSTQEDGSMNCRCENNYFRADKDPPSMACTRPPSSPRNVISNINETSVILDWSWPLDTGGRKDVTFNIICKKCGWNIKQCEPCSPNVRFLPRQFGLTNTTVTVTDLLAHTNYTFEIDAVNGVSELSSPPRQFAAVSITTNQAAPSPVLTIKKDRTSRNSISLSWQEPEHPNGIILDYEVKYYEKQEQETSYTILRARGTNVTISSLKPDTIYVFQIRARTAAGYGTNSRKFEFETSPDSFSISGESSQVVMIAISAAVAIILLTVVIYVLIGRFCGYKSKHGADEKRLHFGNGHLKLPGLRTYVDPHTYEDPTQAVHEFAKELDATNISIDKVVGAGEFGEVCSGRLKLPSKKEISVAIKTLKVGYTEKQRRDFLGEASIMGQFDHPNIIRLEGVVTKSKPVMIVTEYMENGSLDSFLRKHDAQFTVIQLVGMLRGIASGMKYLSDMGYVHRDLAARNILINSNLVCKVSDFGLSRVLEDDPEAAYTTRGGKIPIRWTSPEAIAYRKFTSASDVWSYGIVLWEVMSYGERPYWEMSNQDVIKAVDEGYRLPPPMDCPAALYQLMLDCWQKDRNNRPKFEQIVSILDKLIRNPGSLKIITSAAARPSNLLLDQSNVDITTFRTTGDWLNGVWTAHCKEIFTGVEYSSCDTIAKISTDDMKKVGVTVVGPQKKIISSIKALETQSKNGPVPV
Chain of UniProt Q8IYT8 (whole entry, looked up): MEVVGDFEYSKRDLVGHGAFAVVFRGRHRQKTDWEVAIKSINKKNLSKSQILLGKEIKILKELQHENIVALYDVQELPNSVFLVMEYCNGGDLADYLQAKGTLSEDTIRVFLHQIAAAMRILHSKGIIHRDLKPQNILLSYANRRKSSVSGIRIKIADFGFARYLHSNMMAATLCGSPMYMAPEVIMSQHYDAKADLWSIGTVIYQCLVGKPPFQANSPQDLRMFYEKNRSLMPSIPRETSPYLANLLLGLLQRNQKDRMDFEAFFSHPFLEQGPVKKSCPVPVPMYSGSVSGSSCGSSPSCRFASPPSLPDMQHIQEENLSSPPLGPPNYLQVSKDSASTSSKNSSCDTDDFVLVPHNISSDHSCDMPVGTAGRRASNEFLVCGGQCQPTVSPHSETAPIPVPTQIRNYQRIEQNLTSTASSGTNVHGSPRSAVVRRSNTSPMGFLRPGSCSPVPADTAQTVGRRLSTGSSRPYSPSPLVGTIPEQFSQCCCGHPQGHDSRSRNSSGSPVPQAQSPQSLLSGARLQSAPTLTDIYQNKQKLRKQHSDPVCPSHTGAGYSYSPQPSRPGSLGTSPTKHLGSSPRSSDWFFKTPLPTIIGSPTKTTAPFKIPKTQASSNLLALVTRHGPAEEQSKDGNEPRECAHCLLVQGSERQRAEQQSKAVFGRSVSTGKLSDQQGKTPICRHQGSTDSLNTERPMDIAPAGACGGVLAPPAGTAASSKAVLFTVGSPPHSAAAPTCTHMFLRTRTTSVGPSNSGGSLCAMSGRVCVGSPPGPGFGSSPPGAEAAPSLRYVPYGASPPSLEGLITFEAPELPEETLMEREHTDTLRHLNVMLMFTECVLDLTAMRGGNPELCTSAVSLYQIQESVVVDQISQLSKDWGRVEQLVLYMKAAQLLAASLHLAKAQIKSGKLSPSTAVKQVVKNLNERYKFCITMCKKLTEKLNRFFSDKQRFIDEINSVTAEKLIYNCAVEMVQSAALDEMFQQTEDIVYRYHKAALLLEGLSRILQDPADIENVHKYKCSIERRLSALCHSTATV
Chain of UniProt P78368 (whole entry, looked up): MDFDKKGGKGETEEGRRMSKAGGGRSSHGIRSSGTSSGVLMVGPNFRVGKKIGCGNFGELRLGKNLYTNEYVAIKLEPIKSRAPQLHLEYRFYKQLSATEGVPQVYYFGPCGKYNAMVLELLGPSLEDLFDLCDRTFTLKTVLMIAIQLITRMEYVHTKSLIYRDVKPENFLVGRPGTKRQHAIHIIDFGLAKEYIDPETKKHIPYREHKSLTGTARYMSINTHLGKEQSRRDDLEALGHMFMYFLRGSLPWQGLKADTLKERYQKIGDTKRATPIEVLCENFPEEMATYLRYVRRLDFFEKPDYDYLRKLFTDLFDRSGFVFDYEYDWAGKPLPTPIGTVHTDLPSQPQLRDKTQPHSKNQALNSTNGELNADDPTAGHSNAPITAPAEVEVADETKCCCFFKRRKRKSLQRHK
Chain of UniProt P11362 (whole entry, looked up): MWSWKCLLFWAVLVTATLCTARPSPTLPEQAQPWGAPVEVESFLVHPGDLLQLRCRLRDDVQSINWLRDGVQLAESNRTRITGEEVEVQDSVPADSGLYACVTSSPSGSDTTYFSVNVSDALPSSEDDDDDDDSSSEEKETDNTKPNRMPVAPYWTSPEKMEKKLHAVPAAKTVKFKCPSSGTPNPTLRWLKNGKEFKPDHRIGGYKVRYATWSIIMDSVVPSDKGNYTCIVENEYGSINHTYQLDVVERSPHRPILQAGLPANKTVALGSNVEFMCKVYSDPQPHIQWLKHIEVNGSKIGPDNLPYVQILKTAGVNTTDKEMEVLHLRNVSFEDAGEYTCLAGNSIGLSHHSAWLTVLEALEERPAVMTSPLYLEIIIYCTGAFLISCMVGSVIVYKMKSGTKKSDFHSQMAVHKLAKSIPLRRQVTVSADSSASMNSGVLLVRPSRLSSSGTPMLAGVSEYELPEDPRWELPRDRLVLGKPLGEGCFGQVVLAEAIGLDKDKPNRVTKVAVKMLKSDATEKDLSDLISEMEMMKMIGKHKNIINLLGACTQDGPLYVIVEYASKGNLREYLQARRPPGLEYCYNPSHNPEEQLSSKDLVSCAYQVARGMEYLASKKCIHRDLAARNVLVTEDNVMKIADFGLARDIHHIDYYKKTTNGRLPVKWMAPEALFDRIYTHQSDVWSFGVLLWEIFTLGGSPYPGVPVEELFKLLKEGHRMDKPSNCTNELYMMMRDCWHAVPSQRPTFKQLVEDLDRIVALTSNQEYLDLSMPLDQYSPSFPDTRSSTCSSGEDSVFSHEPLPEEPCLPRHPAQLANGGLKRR

Study 1
Host: mouse
Matrix: microsomes or S9
Concentration: 2 µM
Time: 0.5 h
Compound | remaining compound [%]
c1cc2c(cn1)cnn2Cc1nnc2ccc(-n3ncc4cnccc43)nn12 | 2.92
Cc1cc(C)n2nc(C(=O)N3C[C@@H](N)C[C@H]3C(=O)NC(C)C)cc2n1 | 81.9
CN(C(=O)c1cc2c(s1)-c1ccsc1CC2)C1CCCCC1 | 0.127

Study 2
Structure (SMILES): N#CC(=C(N)Sc1ccc(N)cc1)c1ccccc1C(F)(F)F
Effect on: enzyme activity
Mode: inhibitor
Concentration: 0.5 µM
Relative to: control
target | remaining activity
EPHA3 (Homo sapiens, UniProt P29320) | 105%
WEE1 (Homo sapiens, UniProt P30291) | 73.8%
MAP3K14 (Homo sapiens, UniProt Q99558) | 111%
ACVR1B (Homo sapiens, UniProt P36896) | 101%
CSNK1G3 (Homo sapiens, UniProt Q9Y6M4) | 103%
TBK1 (Homo sapiens, UniProt Q9UHD2) | 98.1%
FGFR1 (Homo sapiens, UniProt P11362) | 108%
ULK2 (Homo sapiens, UniProt Q8IYT8) | 115%
MAPKAPK2 (Homo sapiens, UniProt P49137) | 103%
FGFR3 (Homo sapiens, UniProt P22607) | 98.5%
GRK7 (Homo sapiens, UniProt Q8WTQ7) | 113%
LCK (Homo sapiens, UniProt P06239) | 107%
CSNK1G2 (Homo sapiens, UniProt P78368) | 96.4%
ABL2 (Homo sapiens, UniProt P42684) | 101%

Study 3
Target: Translocator protein (Tspo, Rattus norvegicus, UniProt P16257)
Chain of UniProt P16257 (whole entry, looked up): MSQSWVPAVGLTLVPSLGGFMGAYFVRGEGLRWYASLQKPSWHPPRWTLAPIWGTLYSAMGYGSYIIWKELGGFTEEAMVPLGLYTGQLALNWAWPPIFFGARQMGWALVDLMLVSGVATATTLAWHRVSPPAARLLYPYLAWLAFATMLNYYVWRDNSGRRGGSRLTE
Effect on: radioligand binding
Technique: radioligand displacement
Concentration: 10 µM
Compound | inhibition
O=C(NCc1ncc(C(F)(F)F)cc1Cl)c1ccc2c(c1)C1(CCS(=O)(=O)CC1)[C@H](C1CC1)N2S(=O)(=O)c1ccc(F)cc1 | 7.97%
CN(C)C(=O)Cn1cc(-c2nc(C3(c4ccc(-c5cnc(N)nc5)cc4)CC3)no2)cn1 | 7.97%
CNC(=O)Nc1ccc2c(c1)C1(CC2)OC(=O)N(CC(=O)N(Cc2ccc(F)cc2)[C@@H](C)C(F)(F)F)C1=O (single isomer, unassigned) | 50.6%
O=C([C@H]1C[C@H](O)CN1c1ccc(Cl)cc1)N1CC2COCC(C1)N2Cc1ccc(Cl)cc1 | -8.33%

Study 4
Cell line: mouse MPNST tumor cells
Technique: high-content nuclear imaging
Refers to: cell number
Concentration: 10 µM
Time: 12 h
Setting: mean of 2 replicates
Relative to: plate mean
Direction: higher = more cells
Compound | nuclei count
CCNC(=O)CCC/C=C\C[C@@H]1[C@@H](/C=C/[C@@H](O)CCc2ccccc2)[C@H](O)C[C@@H]1O | 1.47 z-score
CC(=O)CC(c1ccccc1)c1c(O)c2ccccc2oc1=O (stereo not drawn) | 0.27 z-score
Cc1ccc(O)c([C@H](CCN(C(C)C)C(C)C)c2ccccc2)c1 | 4.36 z-score and 2.95 z-score
OC(Cn1cncn1)(Cn1cncn1)c1ccc(F)cc1F | 1.09 z-score
CC(=O)[C@H]1CC[C@H]2[C@@H]3C=CC4=CC(=O)CC[C@@]4(C)[C@@H]3CC[C@]12C | 1.92 z-score

Study 5
Cell line: HaCaT
Concentration: 100 µM
Time: 18 h
SMILES | viability [%]
CN(C)CCN(Cc1ccc(Cl)cc1)c1ccccn1 | 111
COc1cc2nc(N3CCN(C(=O)C4CCCO4)CC3)nc(N)c2cc1OC (stereo not drawn) | 71.4
CCN(CCO)CCCC(C)Nc1ccnc2cc(Cl)ccc12 (stereo not drawn) | 112
Cc1cccc(C)c1OCC(C)N (stereo not drawn) | 112

For quick reference, copied from above (study 2):
target | remaining activity
ULK2 (Homo sapiens, UniProt Q8IYT8) | 115%
TBK1 (Homo sapiens, UniProt Q9UHD2) | 98.1%
EPHA3 (Homo sapiens, UniProt P29320) | 105%
